Experimental data from different studies.
Compare with care: the assays were run in different laboratories. Numbers after ± are the reported error. ≈ marks a conversion by molar mass, not a printed value.
Organism: Enterococcus faecium

| Structure (SMILES) | assay | test system | setting | measurement | result |
| --- | --- | --- | --- | --- | --- |
| CC(=O)NCCCC[C@H](NC(C)=O)C(=O)N[C@H](C)C(=O)N[C@H](C)C(=O)O | cell growth | – | 24 h, with: vancomycin 8 µg/mL | IC50 | 137 µM |
| CN[C@H](CC(C)C)C(=O)N[C@H]1C(=O)N[C@@H](CC(N)=O)C(=O)N[C@H]2C(=O)NC3C(=O)N[C@H](C(=O)N[C@H](C(=O)NCCC[N+](C)(C)C)c4cc(O)cc(O)c4-c4cc3ccc4O)[C@H](O)c3ccc(c(Cl)c3)Oc3cc2cc(c3OC2OC(CO)C(O)[C@H](O)[C@@H]2O[C@H]2CC(C)(NCc3ccc(-c4ccc(Cl)cc4)cc3)[C@H](O)[C@H](C)O2)Oc2ccc(cc2Cl)[C@H]1O (some centres unmarked) | – | ATCC BAA-2317 VanA VRE | with: POPE 100 µg/mL | MIC | 0.3 µg/mL |
| CC[C@H](C)[C@H](NC(=O)[C@H](C)NC(=O)[C@H](CCCCN)NC(=O)[C@H](CC(C)C)NC(=O)[C@H](C)NC(=O)[C@@H](NC(=O)[C@H](Cc1c[nH]cn1)NC(=O)[C@H](CC(C)C)NC(=O)[C@@H](NC(=O)[C@@H](NC(=O)[C@H](CCCCN)NC(=O)[C@H](C)NC(=O)[C@H](C)NC(=O)[C@H](CO)NC(=O)[C@H](CCCCN)NC(=O)[C@H](Cc1ccccc1)NC(=O)[C@@H](NC(=O)[C@H](CCCCN)NC(=O)[C@H](CC(C)C)NC(=O)[C@H](Cc1ccccc1)NC(=O)[C@H](CO)NC(=O)[C@H](CCCCN)NC(=O)[C@H](Cc1c[nH]c2ccccc12)NC(=O)[C@H](CCCCN)NC(C)=O)[C@@H](C)O)[C@@H](C)O)C(C)C)[C@@H](C)O)C(=O)N[C@@H](CO)C(=O)N[C@@H](CO)C(N)=O | – | – | 40 strains | MBC90 | > 64 µg/mL |
| Cn1c(=O)ccc2ccc(F)c(CCNC[C@H]3CN(c4cnc5c(n4)NC(=O)CO5)C(=O)O3)c21 | – | – | – | MIC50 | 0.03 µg/mL (≈ 0.064 µM) |
| CN[C@H](CC(C)C)C(=O)N[C@H]1C(=O)N[C@@H](CC(N)=O)C(=O)N[C@H]2C(=O)N[C@H]3C(=O)N[C@H](C(=O)N[C@H](C(=O)O)c4cc(O)cc(O)c4-c4cc3ccc4O)[C@H](O)c3ccc(c(Cl)c3)Oc3cc2cc(c3O[C@@H]2O[C@H](CO)[C@@H](O)[C@H](O)[C@H]2O[C@H]2C[C@](C)(N)[C@H](O)[C@H](C)O2)Oc2ccc(cc2Cl)[C@H]1O | broth microdilution | VanB vancomycin-resistant clinical isolates | – | MIC range | ≥ 32 µg/mL |
| CCCCCCCCCC(=O)N[C@@H](Cc1c[nH]c2ccccc12)C(=O)N[C@H](CC(N)=O)C(=O)N[C@@H](CC(=O)O)C(=O)N[C@@H]1C(=O)NCC(=O)N[C@@H](CCCN)C(=O)N[C@@H](CC(=O)O)C(=O)N[C@H](C)C(=O)N[C@@H](CC(=O)O)C(=O)NCC(=O)N[C@H](CO)C(=O)N[C@@H]([C@H](C)CC(=O)O)C(=O)N[C@@H](CC(=O)c2ccccc2N)C(=O)O[C@@H]1C | – | resistant isolate | 16 h, with: Ca2+ 2.5 mM | MIC | 4 µg/mL (≈ 2.47 µM) |
| C[C@@H](NC(=O)[C@@H](C)NC(=O)[C@H](CCCCNC(=O)c1cccc(S(=O)(=O)F)c1)NC(=O)c1cccc(S(=O)(=O)F)c1)C(=O)O | cell growth | – | 24 h, with: vancomycin 8 µg/mL | IC50 | 14 µM |
| CO[C@H]1[C@H](O[C@H]([C@H]2O[C@@H](n3ccc(=O)[nH]c3=O)[C@H](O)[C@@H]2O)[C@H](NCCCNC(=O)[C@@H](NC(=O)[C@@H](NC(=O)N[C@H](C(=O)O)C(C)C)[C@@H]2CCN=C(N)N2)[C@@H](OC(=O)CCCCCCCCCCCCN(O)C(=N)N)C(C)C)C(=O)O)O[C@H](CN)[C@H]1O | resazurin microplate | NR-32065 | – | MIC90 | 15.4 ± 0.335 µg/mL (≈ 12.7 µM) |

For quick reference, copied from above:
| Structure (SMILES) | assay | test system | setting | measurement | result |
| --- | --- | --- | --- | --- | --- |
| Cn1c(=O)ccc2ccc(F)c(CCNC[C@H]3CN(c4cnc5c(n4)NC(=O)CO5)C(=O)O3)c21 | – | – | – | MIC50 | 0.03 µg/mL (≈ 0.064 µM) |
